# Assay results of several laboratories.
# ± marks the error that the study gave.
SMILES,test,system,conditions,fraction unbound
COc1ccccc1NC(=O)OC1C(C)C(OC)C=COC2(C)Oc3c(C)c(O)c4c(c3C2=O)C2=NC3(CCN(CC(C)C)CC3)NC2=C(NC(=O)C(C)=CC=CC(C)C(O)C(C)C(O)C1C)C4=O (stereo not drawn),,caseum,,6e-05
CCCCc1oc2ccccc2c1C(=O)c1cc(I)c(O)c(I)c1,ultracentrifugation,human liver microsomes 0.25 mg/mL protein,"2 h, pH 7.4",0.05 ± 0.02
CO[C@H]1/C=C/O[C@@]2(C)Oc3c(C)c(O)c4c(c3C2=O)C2=NC3(CCN(CC(C)C)CC3)NC2=C(NC(=O)/C(C)=C\C=C\[C@H](C)[C@H](O)[C@@H](C)[C@@H](O)[C@@H](C)[C@H](OC(=O)c2cccnc2)[C@@H]1C)C4=O,,plasma,,2.05%
COC1C=COC2(C)Oc3c(C)c(O)c4c(c3C2=O)C2=NC3(CCN(CC(C)C)CC3)NC2=C(NC(=O)C(C)=CC=CC(C)C(O)C(C)C(O)C(C)C(OC(=O)Nc2cnccn2)C1C)C4=O (stereo not drawn),,human plasma,,0.056
CC(NC(=O)OC1OC(C(=O)O)C(O)C(O)C1O)c1cc(Cl)ccc1Cn1c(=S)[nH]c(=O)c2[nH]ccc21 (stereo not drawn),equilibrium dialysis,human plasma,"10 µM, 16 h, 37 °C",0.185 ± 0.014%
CCN(CC)CC#CCNc1ccnc2cc(Cl)ccc12,equilibrium dialysis,human plasma,"1 µM, 5 h, pH 7.4",0.025
COc1ccc2c(c1OCc1ccccc1)C[C@@H](C(=O)O)N(c1nc3ccc(C#N)cc3o1)C2,equilibrium dialysis,rat plasma,"1 µM, 6 h, pH 7.4",< 0.001
Cc1ccc(O)c2c3c(nn12)CCC(C)(NC(=O)c1ccc(-n2cnc4cc(C(=O)O)ccc42)cc1Cl)C3 (stereo not drawn),equilibrium dialysis,human plasma,,0.0002
CCCCc1oc2ccccc2c1C(=O)c1cc(I)c(OCCO)c(I)c1,ultracentrifugation,human plasma,2 h,0.049 ± 0.017
O=C(Cc1ccccc1)Nc1nc2ccccc2n1Cc1ccccc1,ultrafiltration,mouse plasma,"30 min, 37 °C",41.3%
CC(=O)c1cnc(N)nc1N1CC[C@H]1c1nn2ccc(Cl)c2c(=O)n1-c1ccccc1,equilibrium dialysis,rat plasma,0.5-25 µM,0.09 to 0.12
NC(=O)c1c(F)ccc(OCc2nc3cc(Cl)cnc3s2)c1F,equilibrium dialysis,human plasma,10 µM,0.1 ± 0.03
Cc1ncc2c(n1)CN(C(=O)Nc1nc(-c3cccs3)ccc1N)C2,in vitro,mouse plasma,,0.251
COC1C=COC2(C)Oc3c(C)c(O)c4c(c3C2=O)C2=NC3(CCN(CC(C)C)CC3)NC2=C(NC(=O)C(C)=CC=CC(C)C(O)C(C)C(O)C(C)C(OC(=O)Nc2cccnn2)C1C)C4=O (stereo not drawn),,human plasma,,0.103
CSc1cc(C)[nH]c(=O)c1CN1CCc2c(Cl)c3c(c(C)c2C1=O)OC(C)(C1CCC(N(C)C)CC1)O3 (stereo not drawn),,plasma,,0.034
COC1C=COC2(C)Oc3c(C)c(O)c4c(c3C2=O)C2=NC3(CCN(CC(C)C)CC3)NC2=C(NC(=O)C(C)=CC=CC(C)C(O)C(C)C(O)C(C)C(OC(=O)Nc2cscn2)C1C)C4=O (stereo not drawn),,caseum,,0.0017
CCCCc1oc2ccccc2c1C(=O)c1cc(I)c(OCCN)c(I)c1,ultracentrifugation,human plasma,2 h,0.042 ± 0.004
COC1C=COC2(C)Oc3c(C)c(O)c4c(c3C2=O)C2=NC3(CCN(CC(C)C)CC3)NC2=C(NC(=O)C(C)=CC=CC(C)C(O)C(C)C(O)C(C)C(OC(=O)c2cccnc2)C1C)C4=O (stereo not drawn),,human plasma,,0.039
CCNCCOc1c(I)cc(C(=O)c2c(CCC(C)O)oc3ccccc23)cc1I (stereo not drawn),ultracentrifugation,human plasma,2 h,0.018 ± 0.003
COC1C=COC2(C)Oc3c(C)c(O)c4c(c3C2=O)C2=NC3(CCN(CC(C)C)CC3)NC2=C(NC(=O)C(C)=CC=CC(C)C(O)C(C)C(O)C(C)C(OC(=O)c2cncnc2)C1C)C4=O (stereo not drawn),,caseum,,0.0118
Brc1ccccc1-c1nnc(CSc2nnnn2-c2ccccc2)o1,equilibrium dialysis,rat plasma,,0.046

# Some of these lines once more:
SMILES,test,system,conditions,fraction unbound
CSc1cc(C)[nH]c(=O)c1CN1CCc2c(Cl)c3c(c(C)c2C1=O)OC(C)(C1CCC(N(C)C)CC1)O3 (stereo not drawn),,plasma,,0.034
COC1C=COC2(C)Oc3c(C)c(O)c4c(c3C2=O)C2=NC3(CCN(CC(C)C)CC3)NC2=C(NC(=O)C(C)=CC=CC(C)C(O)C(C)C(O)C(C)C(OC(=O)Nc2cscn2)C1C)C4=O (stereo not drawn),,caseum,,0.0017
